Assay results gathered from unrelated publications.
Numbered parts are unrelated; each lists some results of a single study. Changes are numbered by the printed parent chain.

Set 1
Target: RING finger protein unkempt homolog, zinc fingers 1-6, GST-SBP tag (UNK, Homo sapiens, UniProt Q9C0B0, residues 30-357)
Chain of UniProt Q9C0B0 (30-357, looked up): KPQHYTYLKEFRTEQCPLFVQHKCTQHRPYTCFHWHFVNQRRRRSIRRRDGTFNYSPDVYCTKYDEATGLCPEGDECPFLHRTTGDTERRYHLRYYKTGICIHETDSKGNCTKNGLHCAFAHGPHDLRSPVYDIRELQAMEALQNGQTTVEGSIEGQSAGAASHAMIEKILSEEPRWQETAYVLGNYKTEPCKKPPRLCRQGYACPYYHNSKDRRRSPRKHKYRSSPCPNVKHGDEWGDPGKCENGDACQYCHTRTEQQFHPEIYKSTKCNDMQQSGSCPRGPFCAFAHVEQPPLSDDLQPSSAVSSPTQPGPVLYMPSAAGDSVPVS
Method: RNA Bind-n-Seq
Molecule type: RNA
Sample: in vitro
Concentration: not given
Setting: RNA with constant flanks, human-mouse chimeric sites, ends assumed
Baseline: input RNA pool
Reading: higher = stronger binding
Endpoint: bound/input enrichment
Shared flanks, not repeated: GGGAGUUCUACAGUCCGACGAUC … CAACAGAGGAUUGAGCAUCA
CACACACUCUUCUGCGGGACCCUCAUCCUGCAGGCCCGGGCCUAUGUGGGACCGCACGUGCUAGCAGUGGUGACCCGCACAGGGUUCUGCACGGCAAAAGGGGGCCUGGUGAGCUCCAUC: 0.101 ratio
GGUGGGGUGGUCAUUGCCGUUUGAGCUGCUGAUUUUCAUGAGUCGCCCAUUCAGAACUCGCAUAGGGUUGACAAUGUGGGGGGGUGGGGGAUCCAGCUUAUUCUUUUAUUUUCAAGUCCA: 0.539 ratio
CACAGAGCAGCACCUACCUCCUCCUUCUUUCCACACCUGCAAACUCUUUUACUUGGGCUGAAUAUUUAGUGUAAUUAACAUCGCAGCUUGAGGGCUCCUGUGGCAAAUUCCCGGAUUAAA: 1.12 ratio
CUGAGGAUACCACUGAAGAGACCUUAAAAGAAUCAUUUGAGGGCUCUGUUCGUGCAAAGGAUAGUUAUGAUCGGGAAACUGGUUCUUCCAAAGGGUUUUGGUUUUGUGACUUUAAUAGUG: 0.376 ratio
UUACCCGAGAACGAGGAUGAGCUGGAGAGCACCAACAGGCGCUACACCAAGAGAGACUGCAGCACUUUCCUCAGAACUAGUGAGACGGGCAUCGUGGAUCAGGUUAUGGUCACUCUCAAC: 0.168 ratio
GGCUGCUGGUGACUGUCCUGGAGUGGCUGGAGUUCCCGCCGGAGCGCGGCCAGACUAAUUAUAGAAAAUGCCAAGUAGGAAAUUUGCUGAGGGUGAAGUGGUCAGAGGCCGAUGGCCUGG: 4 ratio
GGAUCUUUGGGACUGUUUUACUUAAUUGGUCAUUGAUAGCUUAACAAGCAUGGAGAUAAGAUUAGAAAUCUUGACAUCAACAGGUAUUAAGCAGAAAAAACCAUGGCCACGUGUCUCCUG: 0.194 ratio
GAUCCACAGUGGUCUGAGGAGCAACUCAUUGCUGCAAAAUUCUGUUUUGCUGGACUUGUUAUAGGGCAGACUGAAGUGGACAUCAUGAGUCAUGCUACACAAGCUAUUUUUGAAAUUCUG: 0.167 ratio
GUACUGCAACAGCAGGGAAAACUGCAGGAAGCUCUGAUGCAUUAUAAAGAAGCCAUACGAAUCAGUCCUACCUUUGCUGAUGCCUACUCUAAUAUGGGAAACACUCUAAAGGAGAUGCAG: 0.205 ratio
AAAGAACUACUGAGGCAAGGCAGCAAAUUUAGGAGAGACAUUUCAACACUAUUAAUAGAGUUAGGAUUCCAAAUUAAAAAAAAAACUAAGACAUUAUACAUCAACAAAGCCAAUGUGUGG: 12.1 ratio
UCUUAACGUCCAUUUAAAACUUAUUUUUAUAGCUAGAUAAAUAUUGUUAGUCUUAGACAAUAGCUCACAUUUUUUGAGAAGCAUGCCCUCCCUGUCCAUUGGGCCCAUAACAUGACCCAG: 92.2 ratio

Set 2
Target: Histone acetyltransferase KAT6A, both winged helices, GST fusion (KAT6A, Homo sapiens, UniProt Q92794, residues 1-181)
Method: protein binding microarray
Molecule type: double-stranded DNA, one strand shown
Sample: in vitro
Concentration: not given
Setting: 8-mer, flanks averaged, mean of 2 arrays, mostly near background
Baseline: not given
Reading: higher = stronger binding
Endpoint: E-score
Construct (chain): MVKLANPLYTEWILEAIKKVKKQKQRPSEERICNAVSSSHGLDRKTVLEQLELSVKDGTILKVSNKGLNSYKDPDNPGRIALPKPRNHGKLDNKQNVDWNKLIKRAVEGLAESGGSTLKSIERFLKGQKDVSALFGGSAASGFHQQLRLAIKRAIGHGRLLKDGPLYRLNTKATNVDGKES
ATGTGCCC: -0.0306
GCTTGCCC: -0.0158
GAATCTCA: -0.177
TCTGCAAA: -0.133
CAGTATTC: -0.0131
GAGGGAAA: -0.205
AACTAGAG: -0.1
CGCTTGGC: 0.123
ACGTTGCT: -0.0319
TGCCACCA: -0.157
TGCTTCAA: -0.108
GGTTATAC: 0.0165
GATTCATA: 0.0508
ATGATTCC: 0.114
CTATGCAG: -0.0613
CGCGAATC: 0.238
AACCAGAA: -0.105
AACCATAC: -0.103
AAGGCTTA: -0.0687
CCATCCGG: -0.00114
CCAGCTCC: -0.256
AGATATGA: -0.0302
GCGTGAAC: 0.227
ACCTACAT: -0.081

Set 3
Target: CCNA1, cyclin fold, Cln2 fusion (human)
Method: yeast growth competition, sequencing
Sample: yeast
Setting: weak parent motif
Baseline: not given
Reading: higher = stronger binding
Endpoint: normalised enrichment score
Starting sequence: CDKN1B docking peptide (human); PSACRNLFGPVDH; partner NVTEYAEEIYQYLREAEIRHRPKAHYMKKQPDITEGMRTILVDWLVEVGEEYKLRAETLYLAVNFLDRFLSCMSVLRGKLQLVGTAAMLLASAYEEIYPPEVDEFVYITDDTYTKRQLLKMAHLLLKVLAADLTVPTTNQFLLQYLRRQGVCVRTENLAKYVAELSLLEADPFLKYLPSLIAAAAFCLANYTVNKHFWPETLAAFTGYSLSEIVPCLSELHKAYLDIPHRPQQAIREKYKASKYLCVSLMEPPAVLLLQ
PSACFNLFGPVDH [R5F]: 0.226
PSLCRNLFGPVDH [A3L]: 0.339
PSACRNLFTPVDH [G9T]: 0.416
QSACRNLFGPVDH [P1Q]: 0.396
PSACRNLFGPVQH [D12Q]: 0.496
PSSCRNLFGPVDH [A3S]: 0.195
PSAHRNLFGPVDH [C4H]: 0.277
FSACRNLFGPVDH [P1F]: 0.331
PSACRNLFGPVDG [H13G]: 0.167
PSACRNLFGPVDP [H13P]: 0.304
PSACRNLFGPVNH [D12N]: 0.372
PSACRCLFGPVDH [N6C]: 0.315
PSHCRNLFGPVDH [A3H]: 0.501
PSACRNLDGPVDH [F8D]: 0.178
PSKCRNLFGPVDH [A3K]: 0.171
PSACRNWFGPVDH [L7W]: 0.0994
YSACRNLFGPVDH [P1Y]: 0.216
PSACRNLFGPVDA [H13A]: 0.442
PSACRNLFGYVDH [P10Y]: 0.606
PSACRNLFGIVDH [P10I]: 0.164
PSACRNLFGPDDH [V11D]: 0.455
PPACRNLFGPVDH [S2P]: 0.314
PEACRNLFGPVDH [S2E]: 0.256
PSACRNLFFPVDH [G9F]: 0.249

Set 4
Target: Interferon regulatory factor 7, full length, phosphomimetic (IRF7, Homo sapiens, UniProt Q92985, residues 1-503, S101K/S471D/S472D/S475D/S476D/S477D/S483D/S484D/S487D)
Chain of UniProt Q92985 (whole entry, unmodified, looked up): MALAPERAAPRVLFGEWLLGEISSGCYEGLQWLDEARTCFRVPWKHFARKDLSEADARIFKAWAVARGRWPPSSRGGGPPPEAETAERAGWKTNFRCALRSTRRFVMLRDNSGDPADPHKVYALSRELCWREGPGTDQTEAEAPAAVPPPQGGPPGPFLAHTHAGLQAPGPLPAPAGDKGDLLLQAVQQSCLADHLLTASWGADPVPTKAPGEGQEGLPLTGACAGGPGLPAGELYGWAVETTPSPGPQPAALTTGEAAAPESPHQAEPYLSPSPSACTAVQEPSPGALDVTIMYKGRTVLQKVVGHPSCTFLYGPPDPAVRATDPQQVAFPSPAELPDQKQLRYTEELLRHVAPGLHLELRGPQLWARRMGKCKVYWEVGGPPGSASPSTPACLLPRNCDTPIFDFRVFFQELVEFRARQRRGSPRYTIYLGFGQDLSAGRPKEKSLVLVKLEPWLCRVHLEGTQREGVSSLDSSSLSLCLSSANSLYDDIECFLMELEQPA
Method: protein-binding microarray
Molecule type: double-stranded DNA, one strand shown
Sample: in vitro
Concentration: 250 nM
Setting: 60-bp whole probe
Added: salmon DNA 0.4 mg/ml
Baseline: random background probes
Reading: higher = stronger binding
Endpoint: log fluorescence
Shared flanks, not repeated: GCCTAGCAC … GTCTTGATTCGCTTGACGCTGCTG
ATTTAAAACAACTTTCAAAGGGTGCTA: 0.228 z-score
TTTGAACTGAGTTTCGATTAGTGCTAG: 8.01 z-score
TTAGATTTCAGACTGGAGTAGTGCTAG: 0.124 z-score
TCATTTTGCCCTATTTAACTGTGCTAG: 2.58 z-score
GACGATATCGGGACTGGAGAAGTGCTA: -0.204 z-score
TTAGGTCTTCTACTGCTTTAGTGCTAG: -0.124 z-score
TCATTTTTCCCTCTGGAAAAGTGCTAG: 1.91 z-score
TTAGGTATCGGGATCGGTTAGTGCTAG: 1.45 z-score
TCATCTTTTCATTTTCTACTGTGCTAG: 1.88 z-score
CACGGACTGGGGACTGGGGACGTGCTA: -0.447 z-score
TTAGATTTCGGTTTTCGATTAGTGCTA: 7.23 z-score
GACGGTCTCCTTATCCCGACGTGCTAG: 0.422 z-score
TTTGGTATCGACTTTCGGTTAGTGCTA: 4 z-score
TCACCTTTTTTGTTGTTACTGTGCTAG: 1.1 z-score
TTCACTTTCTTTACTTCACTGTGCTAG: 1.11 z-score
GACGATCCCAGTTTCGAGACGTGCTAG: 4.6 z-score
GACGGACTGGGGACTCGGGACGTGCTA: -0.584 z-score
TTAGATATGGGGTTTCGATTAGTGCTA: 6.07 z-score
AACGATATCGGGTATCGAGACGTGCTA: 0.18 z-score
TCAAAAATCAAGTCTGGGACTGTGCTA: -0.731 z-score
AGACATTCTTTCAGTTGGAAGTGCTAG: 0.409 z-score
GACGGTTTCGGGCCTGGGGACGTGCTA: 2.07 z-score

Set 5
Target: XBP1, bZIP domain (human)
Method: DHFR protein complementation
Sample: yeast
Setting: single substitutions, most at no-binding floor
Baseline: wild-type JUN-FOS pair
Reading: higher = stronger binding
Endpoint: binding fitness
Starting sequence: JUN, bZIP domain (human); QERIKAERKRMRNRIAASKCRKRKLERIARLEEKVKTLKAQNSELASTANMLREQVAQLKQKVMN; partner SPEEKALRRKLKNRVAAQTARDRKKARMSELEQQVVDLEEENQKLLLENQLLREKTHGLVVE
S47M: -0.61 natural log
V56N: -1.35 natural log
L52P: -1.44 natural log
A46R: -0.168 natural log
V56A: -0.795 natural log
A57N: -0.685 natural log
L45P: -1.47 natural log
L31K: -1.46 natural log
E44G: -1.31 natural log
S47I: -0.734 natural log
A29D: -1.17 natural log
M51G: -1.14 natural log
V35L: -0.852 natural log
V56C: -0.697 natural log
I28P: -1.31 natural log
A57V: -1.13 natural log
L52E: -1.41 natural log
E54D: -1.15 natural log
E33R: -1.17 natural log
M51P: -1.48 natural log
E54M: -1.44 natural log
A46V: -0.657 natural log
A40F: -1.16 natural log
T48G: -1.41 natural log
E44D: -1.18 natural log

Set 6
Target: ABI1, truncated, D143A, DHFR fusion (Arabidopsis thaliana)
Method: DHFR PCA, deep sequencing
Sample: yeast
Setting: methotrexate growth selection, single substitutions
Added: (+)-ABA 0.032 µM
Baseline: wild-type fitted maximum
Reading: higher = stronger binding
Endpoint: relative binding score
Starting sequence: PYL1, truncated, DHFR fusion (Arabidopsis thaliana); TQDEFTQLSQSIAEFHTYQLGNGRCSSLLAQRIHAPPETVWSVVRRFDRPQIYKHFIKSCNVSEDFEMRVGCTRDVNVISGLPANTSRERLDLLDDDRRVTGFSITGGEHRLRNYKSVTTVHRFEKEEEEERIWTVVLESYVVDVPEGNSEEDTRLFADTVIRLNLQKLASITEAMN
H16Y: -3.33%
E67F: 0.742%
E129D: 48.7%
S150E: 9.94%
V100L: -0.766%
R32L: 30.5%
K126T: 53%
V76E: -3.56%
E67W: 3.41%
S87G: -1.59%
F66Q: 6.34%
V136E: -4.55%
R90H: -1.89%
E174G: -3.09%
P36V: 2.7%
R132K: 48.3%

A few entries again (set 4):
ATTTAAAACAACTTTCAAAGGGTGCTA: 0.228 z-score
TTTGAACTGAGTTTCGATTAGTGCTAG: 8.01 z-score
TTAGATTTCAGACTGGAGTAGTGCTAG: 0.124 z-score
TCATTTTGCCCTATTTAACTGTGCTAG: 2.58 z-score
GACGATATCGGGACTGGAGAAGTGCTA: -0.204 z-score
TTAGGTCTTCTACTGCTTTAGTGCTAG: -0.124 z-score
TCATTTTTCCCTCTGGAAAAGTGCTAG: 1.91 z-score
TTAGGTATCGGGATCGGTTAGTGCTAG: 1.45 z-score
